Assay results from different studies.
Lines come from different studies, so protocols differ. Values joined by “and” are separate records of one study, mostly repeats; a detail may differ. Converted amounts (≈) assume the structure as drawn.

Structure (SMILES)	organism	test	system	conditions	measurement	result
Cc1cc(C)c(C#N)c(SCC(=O)c2ccccc2)n1	Leishmania infantum	parasite growth	mouse Macrophage	intracellular, amastigote	EC50	> 64 µM
COc1ccc2ncn(-c3cc(O[C@H](C)c4ccccc4C(F)(F)F)c(C(N)=O)s3)c2c1	Trypanosoma brucei	parasite growth	–	–	EC50	0.316 µM
COc1ccc(C(=O)CSc2[nH]c(=O)cc(C(F)(F)F)c2C#N)cc1	Leishmania infantum	parasite growth	mouse Macrophage	intracellular, amastigote	EC50	25.7 µM
CCN(CC)Cc1ccc(Nc2nccc(-c3cnn4ncccc34)n2)cc1	Trypanosoma brucei	parasite growth	–	–	EC50	0.0316 µM
CC(=O)OC[C@@]1(C)[C@@H]2CC[C@]3(C)[C@H](CC=C4[C@@H]5CC(C)(C)CC[C@]5(NC(=O)N5CCN(C)CC5)CC[C@]43C)[C@@]2(C)CC[C@@H]1O[C@@H]1OC[C@H](OC(C)=O)[C@H](OC(C)=O)[C@H]1O[C@@H]1O[C@@H](C)[C@H](OC(C)=O)[C@@H](OC(C)=O)[C@H]1OC(C)=O	Leishmania mexicana	parasite growth, resazurin	–	50 µM, amastigote	inhibition	98.3%
CCS(=O)(=O)Oc1ccc(C=NNC(=O)CSc2nc3ccc(Cl)cc3c(=O)n2-c2ccccc2)cc1OC	Bacillus cereus	microbial growth, well diffusion	–	20 µg/mL	inhibition zone	3 mm
C=CCOC(=O)[C@]12CCC(C)(C)C[C@H]1C1=CC[C@@H]3[C@@]4(C)CC[C@H](O)[C@@](C)(CO)[C@@H]4CC[C@@]3(C)[C@]1(C)CC2	Leishmania mexicana	parasite growth, resazurin	–	50 µM, amastigote	inhibition	99.9%
NS(=O)(=O)c1ccc(N/N=C2\C(=O)Nc3ccc(-c4cnco4)cc32)cc1	Trypanosoma brucei	parasite growth	–	–	EC50	0.398 µM
CC(C)[C@@H]1NC(=O)[C@@H](CCCNC(=N)N)NC(=O)[C@H]([C@@H](C)O)NC(=O)[C@@H](CCCCN)NC(=O)[C@H](Cc2ccccc2)NC(=O)[C@@H](Cc2ccccc2)NC1=O	Balamuthia mandrillaris	parasite growth, ATP luminescence	–	72 h	IC50	≤ 5 µM
CC1(C)CC[C@]2(C(=O)O)CC[C@]3(C)C(=CC[C@@H]4[C@@]5(C)CC[C@H](O[C@@H]6O[C@H](CO)[C@@H](O)[C@H](O)[C@H]6O)[C@@](C)(CO)[C@@H]5CC[C@]43C)[C@@H]2C1	Leishmania mexicana	parasite growth, resazurin	–	50 µM, amastigote	inhibition	97.3%
CN(Cc1ccc(C(C)(C)C)cc1)Cc1cccc2ccccc12	Trichophyton mentagrophytes	microbial growth, disc diffusion	ATCC18748	0.512 µg/mL, 72 h	inhibition zone	≥ 55 mm
Cc1cc(C)c(C#N)c(SCC(=O)c2ccc(F)cc2F)n1	Leishmania infantum	parasite growth	mouse Macrophage	intracellular, amastigote	EC50	32 µM
O=c1cc(-c2ccc(O)c(O)c2)oc2cc(O)cc(O)c12	Helicobacter pylori	microbial growth, broth dilution	–	0.24 µg/mL	inhibition	31.8%
CC(C)(C)OC(=O)N[C@H]1CCN(c2cc(C(=O)NCC(=O)O)ccc2NC(=O)c2cc(Br)c(Br)[nH]2)C1	Acinetobacter baumannii	microbial growth, broth dilution	ATCC19606	–	MIC	> 32 µg/mL
Cc1cc(C)c(C#N)c(NCC(=O)c2ccc(F)cc2)n1	Leishmania infantum	parasite growth	mouse Macrophage	intracellular, amastigote	EC50	> 64 µM
O=C1Nc2ccc(C(=O)c3ccco3)cc2C1=Cc1cc(Cl)c(O)c(Cl)c1	Trypanosoma brucei	parasite growth	–	–	EC50	1.26 µM
[2H]C([2H])([2H])N(c1ccc(F)cc1)c1c(-c2ccccn2)nc2ccccn12	Leishmania infantum	parasite growth	–	intracellular, amastigote	IC50	1.29 µM
C=C[C@@]1(C)C=C2CC[C@@H]3[C@](C)(CCC[C@@]3(C)C(=O)O)[C@H]2CC1	Helicobacter pylori	microbial growth, broth dilution	–	1.95 µg/mL	inhibition	49.7%
Cc1ccc2nc(-c3ccccc3)cn2c1	Leishmania infantum	parasite growth	–	intracellular, amastigote	EC50	> 63.1 µM
CC(C)[C@@H]1NC(=O)[C@@H](CCCNC(=N)N)NC(=O)[C@H]([C@@H](C)O)NC(=O)[C@@H](CCCN)NC(=O)[C@H](C)NC(=O)[C@@H](Cc2ccccc2)NC1=O	Balamuthia mandrillaris	parasite growth, ATP luminescence	–	–	IC90	> 20 µM
COc1ccc(-c2cc(=O)c3c(O)cc(O[C@@H]4O[C@H](CO)[C@@H](O)[C@H](O)[C@H]4O)cc3o2)cc1O	Helicobacter pylori	microbial growth, broth dilution	–	3.9 µg/mL	inhibition	100%
Cc1[nH]c(C(=O)Nc2ccc(C(=O)NCC(=O)O)cc2N2CCNCC2)c(Cl)c1Cl.Cl	Klebsiella aerogenes	microbial growth, broth dilution	ATCC13408	–	MIC	> 32 µg/mL
Cc1cc(C)c(C#N)c(SCc2ccccc2)n1	Leishmania infantum	parasite growth	mouse Macrophage	intracellular, amastigote	EC50	47 µM
C[C@@H](Oc1cc(-n2cnc3ccc(OC[C@@H](O)CO)cc32)sc1C(N)=O)c1ccccc1Cl	Trypanosoma brucei	parasite growth	–	–	EC50	0.2 µM

Structure (SMILES)	organism	test	system	conditions	measurement	result
CC(C)[C@@H]1NC(=O)[C@@H](CO)NC(=O)[C@@H](CCCNC(=N)N)NC(=O)[C@H](Cc2ccccc2)NC1=O	Balamuthia mandrillaris	parasite growth, ATP luminescence	–	–	IC50	> 16 µg/mL
CC1(C)CC[C@]2(NC(=O)NCc3cccnc3)CC[C@]3(C)C(=CC[C@@H]4[C@@]5(C)CC[C@@H]6OC(C)(C)OC[C@@]6(C)[C@@H]5CC[C@]43C)[C@@H]2C1	Leishmania mexicana	parasite growth, resazurin	–	50 µM, amastigote	inhibition	95%
CC(C)[C@@H]1NC(=O)[C@@H](CCCNC(=N)N)NC(=O)[C@H]([C@@H](C)O)NC(=O)[C@@H](C)NC(=O)[C@H](Cc2ccccc2)NC(=O)[C@@H](Cc2ccccc2)NC1=O	Balamuthia mandrillaris	parasite growth, ATP luminescence	–	–	IC90	12.5 µM
COC(=O)c1ccc(O)cc1	Helicobacter pylori	microbial growth, broth dilution	–	0.48 µg/mL	inhibition	41.4%
COc1ccc2ncn(-c3cc(O[C@H](C)c4ccccc4Cl)c(C(N)=O)s3)c2c1	Trypanosoma brucei	parasite growth	–	–	EC50	0.398 µM
COc1cc([C@H]2OC[C@H]3[C@@H]2CO[C@@H]3c2cc(OC)c(O)c(OC)c2)cc(OC)c1O	Helicobacter pylori	microbial growth, broth dilution	–	7.81 µg/mL	inhibition	100%
Fc1ccc(Nc2c(-c3ncccc3F)nc3ccccn23)cc1	Leishmania infantum	parasite growth	–	intracellular, amastigote	IC50	12.7 µM and 34.6 µM
CN(Cc1ccc(C2(C(F)(F)F)CC2)cc1)Cc1cccc2ccccc12	Trichophyton mentagrophytes	microbial growth, disc diffusion	ATCC18748	0.032 µg/mL, 72 h	inhibition zone	39.2 mm
COc1ccccc1C(=O)CSc1nc(C)cc(C)c1C#N	Leishmania infantum	parasite growth	mouse Macrophage	intracellular, amastigote	EC50	20.4 µM
Cc1ccn2cc(-c3ccccn3)nc2c1	Leishmania infantum	parasite growth	–	intracellular, amastigote	EC50	20 µM
Cc1cc(C)c(C#N)c(NCC(O)c2ccc(F)cc2)n1 (stereo not drawn)	Leishmania infantum	parasite growth	mouse Macrophage	intracellular, amastigote	EC50	> 64 µM
COc1cc(-c2cc(=O)c3c(O)cc(O)cc3o2)ccc1O	Helicobacter pylori	microbial growth, broth dilution	–	31.25 µg/mL	inhibition	100%
Cc1ccc(N(c2ccc(NC(=O)CN(C)c3ccccc3N3CCCC3=O)cc2)C(C)C)cc1	Plasmodium falciparum	parasite growth, SYBR Green	DD2	blood stage	IC90	0.00879 µM
Fc1ccc(Nc2c(-c3ccccn3)nc3cccnn23)cc1	Leishmania infantum	parasite growth	–	intracellular, amastigote	IC50	9.51 µM and 22.3 µM
CC(=O)OC[C@@]1(C)[C@@H]2CC[C@]3(C)[C@H](CC=C4[C@@H]5CC(C)(C)CC[C@]5(NC(=O)N5CCCC5)CC[C@]43C)[C@@]2(C)CC[C@@H]1O	Leishmania mexicana	parasite growth, resazurin	–	50 µM, amastigote	inhibition	97.4%
O=c1cc(-c2ccc(O)cc2)oc2cc(O)cc(O)c12	Helicobacter pylori	microbial growth, broth dilution	–	7.81 µg/mL	inhibition	100%
CC(C)[C@@H]1NC(=O)[C@@H](CCCNC(=N)N)NC(=O)[C@H]([C@@H](C)O)NC(=O)[C@@H](CCCN)NC(=O)[C@H](Cc2ccccc2)NC(=O)[C@@H](Cc2ccc(O)cc2)NC1=O	Balamuthia mandrillaris	parasite growth, ATP luminescence	–	–	IC50	> 20 µM
COc1cc(C)c(C#N)c(SCC(=O)c2ccccc2)n1	Leishmania infantum	parasite growth	mouse Macrophage	intracellular, amastigote	EC50	> 64 µM
CC1(C)CC[C@]2(NC(=O)N3CCC[C@H]3C(=O)NCCCn3ccnc3)CC[C@]3(C)C(=CC[C@@H]4[C@@]5(C)CC[C@@H]6OC(C)(C)OC[C@@]6(C)[C@@H]5CC[C@]43C)[C@@H]2C1	Leishmania mexicana	parasite growth, resazurin	–	50 µM, amastigote	inhibition	96%
CN[C@H](CC(C)C)C(=O)N[C@H]1C(=O)N[C@@H](CC(N)=O)C(=O)N[C@H]2C(=O)N[C@H]3C(=O)N[C@H](C(=O)N[C@H](C(=O)O)c4cc(O)cc(O)c4-c4cc3ccc4O)[C@H](O)c3ccc(c(Cl)c3)Oc3cc2cc(c3O[C@@H]2O[C@H](CO)[C@@H](O)[C@H](O)[C@H]2O[C@H]2C[C@](C)(N)[C@H](O)[C@H](C)O2)Oc2ccc(cc2Cl)[C@H]1O	Staphylococcus epidermidis	microbial growth	–	clinical isolate	MIC90	2 µg/mL (≈ 1.38 µM)
C[C@@H]1O[C@@H](O[C@H]2[C@H](O[C@H]3CC[C@@]4(C)[C@@H](CC[C@]5(C)[C@@H]4CC=C4[C@@H]6CC(C)(C)CC[C@]6(C(=O)O)CC[C@]45C)[C@]3(C)CO)OC[C@H](O)[C@@H]2O)[C@H](O)[C@H](O)[C@H]1O	Leishmania mexicana	parasite growth, resazurin	–	50 µM, amastigote	inhibition	95.1%
NS(=O)(=O)c1ccc(-c2cc3ccncc3cc2OCc2ccccc2)cc1	Trypanosoma brucei	parasite growth	–	–	EC50	20 µM
CC1(C)CC[C@]2(C(=O)OCc3ccc([N+](=O)[O-])cc3)CC[C@]3(C)C(=CC[C@@H]4[C@@]5(C)CC[C@H](O)[C@@](C)(CO)[C@@H]5CC[C@]43C)[C@@H]2C1	Leishmania mexicana	parasite growth, resazurin	–	50 µM, amastigote	inhibition	97.3%
O=C(O[C@@H]1O[C@@H]2COC(=O)c3cc(O)c(O)c(O)c3-c3c(cc(O)c(O)c3O)C(=O)O[C@H]([C@H]1O)[C@@H]2O)c1cc(O)c(O)c(O)c1	Streptococcus mutans	microbial killing, broth dilution	–	–	MBC	400 µg/mL (≈ 630 µM)

Some of these lines once more:
Structure (SMILES)	organism	test	system	conditions	measurement	result
CN(Cc1ccc(C2(C(F)(F)F)CC2)cc1)Cc1cccc2ccccc12	Trichophyton mentagrophytes	microbial growth, disc diffusion	ATCC18748	0.032 µg/mL, 72 h	inhibition zone	39.2 mm
COc1ccccc1C(=O)CSc1nc(C)cc(C)c1C#N	Leishmania infantum	parasite growth	mouse Macrophage	intracellular, amastigote	EC50	20.4 µM
COc1cc(C)c(C#N)c(SCC(=O)c2ccccc2)n1	Leishmania infantum	parasite growth	mouse Macrophage	intracellular, amastigote	EC50	> 64 µM
CC(C)[C@@H]1NC(=O)[C@@H](CCCNC(=N)N)NC(=O)[C@H]([C@@H](C)O)NC(=O)[C@@H](CCCN)NC(=O)[C@H](Cc2ccccc2)NC(=O)[C@@H](Cc2ccc(O)cc2)NC1=O	Balamuthia mandrillaris	parasite growth, ATP luminescence	–	–	IC50	> 20 µM
C[C@@H]1O[C@@H](O[C@H]2[C@H](O[C@H]3CC[C@@]4(C)[C@@H](CC[C@]5(C)[C@@H]4CC=C4[C@@H]6CC(C)(C)CC[C@]6(C(=O)O)CC[C@]45C)[C@]3(C)CO)OC[C@H](O)[C@@H]2O)[C@H](O)[C@H](O)[C@H]1O	Leishmania mexicana	parasite growth, resazurin	–	50 µM, amastigote	inhibition	95.1%
COc1ccc2ncn(-c3cc(O[C@H](C)c4ccccc4Cl)c(C(N)=O)s3)c2c1	Trypanosoma brucei	parasite growth	–	–	EC50	0.398 µM
Cc1cc(C)c(C#N)c(SCC(=O)c2ccc(F)cc2F)n1	Leishmania infantum	parasite growth	mouse Macrophage	intracellular, amastigote	EC50	32 µM
O=c1cc(-c2ccc(O)c(O)c2)oc2cc(O)cc(O)c12	Helicobacter pylori	microbial growth, broth dilution	–	0.24 µg/mL	inhibition	31.8%
